Measurements from different studies.
Lines come from different studies, so protocols differ. Values joined by “and” are separate records of one study, mostly repeats; a detail may differ. ± marks the error that the study gave.
rep papain-like protease: Replicase polyprotein 1ab, papain-like protease (rep, Severe acute respiratory syndrome coronavirus 2, UniProt P0DTD1)
rep methyltransferase: Replicase polyprotein 1ab, methyltransferase (rep, Severe acute respiratory syndrome coronavirus 2, UniProt P0DTD1)
rep main protease: Replicase polyprotein 1ab, main protease (rep, Severe acute respiratory syndrome coronavirus 2, UniProt P0DTD1)
rep nsp16 with nsp10: Replicase polyprotein 1ab, nsp16 with nsp10 (rep, Severe acute respiratory syndrome coronavirus 2, UniProt P0DTD1)
rep nsp13 helicase: Replicase polyprotein 1ab, nsp13 helicase (rep, Severe acute respiratory syndrome coronavirus 2, UniProt P0DTD1)

| Compound | target | assay | setting | IC50 |
| --- | --- | --- | --- | --- |
| CCC(C(=O)Nc1cccc(F)c1)n1cccc2nc(SCc3ccc(F)cc3)nc1-2 (centres unmarked) | rep papain-like protease | enzyme activity, inhibitor | – | > 20 µM |
| N#Cc1ccc(N2N=C(c3ccc(C(=O)O)cc3)CC2C2CCCC2)cc1Cl (centres unmarked) | rep methyltransferase | enzyme activity, inhibitor | – | 6.31 µM |
| Cc1oc2nc1C(=O)N[C@](C)(C(=O)NCCc1ccccc1)c1nc(c(C)o1)C(=O)N[C@](C)(C(=O)NCCc1ccccc1)c1nc(c(C)o1)C(=O)N[C@]2(C)C(=O)NCCc1ccccc1 | rep main protease | enzyme activity, inhibitor | – | 7.35 µM and 7.3 µM |
| CCCCNC(=O)C[C@H](Cc1ccc(F)cc1)NC(=O)[C@@H](Cc1ccc(Cl)cc1Cl)NC(=O)[C@H](N)Cc1ccccc1C#N | rep main protease | enzyme activity, inhibitor, fluorescence | – | 0.2 µM |
| CC(=O)OCC1Cc2c(-c3cc(N(C)C)ccn3)cccc2-c2c(O)ccc(-c3ccc(Br)cc3)c21 (centres unmarked) | rep main protease | enzyme activity, inhibitor | – | 10 µM |
| CCC(C(=O)Nc1ccccc1)n1cccc2nc(SCc3ccc(F)cc3)nc1-2 (centres unmarked) | rep papain-like protease | enzyme activity, inhibitor | – | 13.8 µM |
| C[C@@H](Cc1ccc(O)c(O)c1)[C@@H](C)Cc1ccc(O)c(O)c1 | rep main protease | enzyme activity, inhibitor, FRET | – | 6.06 µM |
| CNC(=O)C[C@H](Cc1ccc(F)cc1)NC(=O)[C@@H](Cc1ccc(Cl)cc1Cl)NC(=O)[C@H](N)Cc1ccccc1C#N | rep papain-like protease | enzyme activity, inhibitor | – | > 10 µM |
| CCOC(=O)CNC(=O)c1ccccc1[Se][Se]c1ccccc1C(=O)NCC(=O)OCC | rep main protease | enzyme activity, inhibitor | – | 0.56 µM |
| NC(=O)c1cccc(CCN(CC[C@H](N)C(=O)O)C[C@H]2O[C@@H](n3cnc4c(N)ncnc43)[C@H](O)[C@@H]2O)c1 | Replicase polyprotein 1ab, nsp14 (rep, Severe acute respiratory syndrome coronavirus 2, UniProt P0DTD1) | nsp14 methyltransferase activity, inhibitor, radiometric SPA | 20 min, together with: 3H-SAM 250 nM, RNA 50 nM | 0.26 ± 0.13 µM |
| Cc1c(C(=O)N2c3ccccc3NC(=O)C2CC(=O)Nc2ccc(Cl)c(Cl)c2)oc2ccccc12 (centres unmarked) | rep main protease | Rev-Nluc reporter, inhibitor | – | < 50 µM |
| O=C(Nc1ccc(S(=O)(=O)O)cc1)C1=C(C(F)(F)F)NC(=S)NC1c1ccc([N+](=O)[O-])cc1 (centres unmarked) | rep main protease | enzyme activity, inhibitor, fluorescence | with preincubation | 55.5 µM |
| CCOC(=O)/C=C/[C@H](C[C@@H]1CCNC1=O)NC(=O)[C@H](CC(C)C)NC(=O)[C@@H](NC(=O)OCc1ccccc1)[C@@H](C)OC(C)(C)C | rep main protease | enzyme activity, inhibitor | – | 0.149 µM |
| CNC(=O)C[C@H](Cc1ccc(F)cc1)NC(=O)[C@@H](Cc1ccc(Cl)cc1Cl)NC(=O)[C@@H](Cc1ccccc1C#N)NC(=O)OC(C)(C)C | rep main protease | enzyme activity, inhibitor, fluorescence | – | 20 µM |
| Brc1c(Br)c(Br)c2[nH]nnc2c1Br | rep methyltransferase | enzyme activity, inhibitor | – | 9.87 µM |
| CCn1ccc(-c2cc(-c3cnn(CCOC)c3)cc([C@@H](C)NC(=O)c3cc(OCCN(C)C)ccc3C)c2)n1 | rep papain-like protease | enzyme activity, inhibitor, FRET | – | 0.165 µM |
| CN(C)CCCCNC(=O)C[C@H](Cc1ccc(F)cc1)NC(=O)[C@@H](Cc1ccc(Cl)cc1)NC(=O)[C@H](N)Cc1ccccc1C#N | rep main protease | enzyme activity, inhibitor, fluorescence | – | 0.04 µM |
| CC1CC(c2ccc(C(=O)O)cc2C#N)=NN1c1ccc(C#N)c(Cl)c1 (centres unmarked) | rep methyltransferase | enzyme activity, inhibitor | – | 10 µM |
| Nc1ncnc2c1ncn2[C@@H]1O[C@H](CSCc2ccc(Cl)cc2Cl)[C@@H](O)[C@H]1O | rep nsp16 with nsp10 | methyltransferase activity, radiometric | together with: 3H-SAM | > 200 µM |
| Cc1ccc(C(=O)NCc2ccc(C)c(C(=O)N[C@H](C)c3cccc4ccccc34)c2)cc1Br | rep papain-like protease | enzyme activity, inhibitor | – | > 100 µM |
| CCCCCCCCCCCCCc1cc(O)cc(O)c1 | rep main protease | enzyme activity, inhibitor | with preincubation | > 100 µM |
| COc1ccc(/C=C/[N+](=O)[O-])cc1 | rep main protease | enzyme activity, inhibitor, FRET | with preincubation | 6.65 µM |
| CC(C)(C)NC(=O)C(c1cccnc1)N(C(=O)C(F)Cl)c1ccc(C(C)(C)C)cc1 (single isomer, unassigned) | rep main protease | enzyme activity, inhibitor | – | 2.7 µM |
| Oc1ccccc1/C=N/NC(=S)NC1CCCCC1 | rep main protease | enzyme activity, inhibitor, FRET | – | 17.6 µM |

| Compound | target | assay | setting | IC50 |
| --- | --- | --- | --- | --- |
| CCOC(=O)/C=C/[C@H](C[C@@H]1CCNC1=O)NC(=O)[C@@H]1[C@@H]2[C@H](CN1C(=O)[C@@H](NC(=O)C(F)(F)F)C(C)(C)C)C2(C)C | rep main protease | enzyme activity, inhibitor, FRET | – | 0.044 µM |
| COc1ccccc1-c1nc2sc3c(c2c(=O)o1)CCC3 | rep main protease | enzyme activity, inhibitor | – | > 100 µM |
| CC(C)C[C@H](NC(=O)c1cc2c(OC(F)(F)F)cccc2[nH]1)C(=O)N[C@@H](C[C@@H]1CCNC1=O)C(=O)c1nc2ccccc2s1 | rep main protease | enzyme activity, inhibitor | – | 2.5 µM |
| CC(C)[C@H](NC(=O)[C@H]1CCC[C@@H]1NC(=O)[C@H](CC(N)=O)NC(=O)[C@H](CCCNC(=N)N)NC(=O)[C@H]1CCC[C@@H]1N)C(=O)N[C@@H](Cc1ccccc1)C(=O)N[C@H]1CCC[C@@H]1C(=O)N[C@@H](Cc1ccccc1)C(=O)N[C@@H](Cc1ccc(O)cc1)C(=O)N[C@H]1CCC[C@@H]1C(=O)N[C@H](C(=O)N[C@@H](CC(=O)O)C(N)=O)[C@@H](C)O | rep main protease | enzyme activity, inhibitor | – | 5.2 µM |
| NC(CO)C(O)c1ccc2c(c1)OCO2 (centres unmarked) | rep main protease | enzyme activity, inhibitor, FRET | – | 8.53 ± 0.43 µM |
| C=CC(=O)NC(CC(=C)C)C(=O)N1CC(C(=O)NC(Cc2ccccc2)C(=O)NC)C(c2cccc(C(F)(F)F)c2)C1 (centres unmarked) | rep main protease | – | – | 2 µM |
| O=C(NCCc1cccc(F)c1)[C@H](c1cncnc1)N(C(=O)[C@H](F)Cl)c1ccc(S(F)(F)(F)(F)F)cc1 | rep main protease | enzyme activity, inhibitor | – | 2.24 µM |
| N#Cc1ccccc1C[C@@H](N)C(=O)N[C@H](Cc1ccc(Cl)cc1Cl)C(=O)N[C@H](CC(=O)NCCCNc1nnc(N)[nH]1)Cc1ccc(F)cc1 | rep main protease | enzyme activity, inhibitor, fluorescence | – | 0.5 µM |
| Oc1ccccc1/C=N/NC(=S)Nc1ccc(Cl)cc1 | rep main protease | enzyme activity, inhibitor, FRET | – | 32.9 µM |
| CCOC(=O)CC[C@@H](C(=O)OCC)n1[se]c2ccccc2c1=O | rep main protease | enzyme activity, inhibitor | – | 0.102 µM |
| O=C1CC(c2ccccc2)Oc2ccccc21 (centres unmarked) | rep nsp13 helicase | ATPase activity | no nucleic acid | > 30 µM |
| Nc1ncnc2c1ncn2[C@@H]1O[C@H](CSCc2cc(C(=O)O)cc(-c3cccc(O)c3)c2)[C@@H](O)[C@H]1O | rep nsp16 with nsp10 | methyltransferase activity, inhibitor | 30 min, 30 °C, together with: SAM 10 µM | 0.0014 ± 0.0001 µM |
| C=CCn1c(C)cc(C(=O)COn2nnc3ccc(S(=O)(=O)N(C)C)cc32)c1C | rep main protease | enzyme activity, inhibitor, FRET | – | 0.58 µM |
| O=c1cc(-c2ccc(O)c(O)c2)oc2cc(O[C@@H]3O[C@H](CO)[C@@H](O)[C@H](O)[C@H]3O)cc(O)c12 | rep nsp13 helicase | helicase unwinding activity | – | > 30 µM |
| Cc1cc(C)nc(Sc2nc3sccn3c2[N+](=O)[O-])n1 | rep main protease | enzyme activity, inhibitor | – | 82.3 µM |
| O=C(O)CNC(=O)c1ccccc1[Se][Se]c1ccccc1C(=O)NCC(=O)O | rep main protease | enzyme activity, inhibitor | – | 6.49 µM |
| O=c1c2ccccc2sn1-c1ccccc1 | rep main protease | enzyme activity, inhibitor | 10 min preincubation, 30 nM enzyme, together with: 20 µM substrate | 0.2 ± 0.03 µM |
| CC(C)C[C@H](NC(=O)[C@H](CCCN)NC(=O)[C@@H](NC(=O)[C@@H](N)CCC(N)=O)C(C)C)C(=O)N[C@H](/C=C/S(=O)(=O)c1ccc(O)cc1)C[C@@H]1CCNC1=O | rep main protease | enzyme activity, inhibitor | 37 °C, 1 h preincubation | 0.484 ± 0.0212 µM |
| O=C1C[C@H](c2ccc(O)cc2)c2c(cc(O)c3c2O[C@H](c2ccc(O)c(O)c2)[C@H](OC(=O)c2cc(O)c(O)c(O)c2)C3)O1 | rep main protease | enzyme activity, inhibitor | – | 41.2 µM |
| CCc1n[nH]c(NC(=O)c2ccc3c(c2)nnn3C)n1 | rep main protease | enzyme activity, inhibitor | – | 7.37 µM |
| CNc1nc(NC(CCO)c2ccccc2Cl)nc(N2CCN(C(=O)CCl)C(C)C2)n1 (centres unmarked) | rep main protease | enzyme activity, inhibitor | – | 1.67 µM |
| CC(C)CC(NC(=O)OCc1ccccc1)C(=O)NC(CC1CCNC1=O)C(=O)C(=O)NC1CC1 (centres unmarked) | rep main protease | enzyme activity, inhibitor, FRET | pH 6.5 | 0.045 µM |
| CC(=O)Oc1ccc(/C=C/C(=O)O[C@@H]2Cc3c(O)cc(O)cc3O[C@@H]2c2ccc(O)c(O)c2)cc1 | rep main protease | enzyme activity, inhibitor, FRET | – | 77.5 µM |

For quick reference, copied from above:
| Compound | target | assay | setting | IC50 |
| --- | --- | --- | --- | --- |
| CCn1ccc(-c2cc(-c3cnn(CCOC)c3)cc([C@@H](C)NC(=O)c3cc(OCCN(C)C)ccc3C)c2)n1 | rep papain-like protease | enzyme activity, inhibitor, FRET | – | 0.165 µM |
| CC(C)(C)NC(=O)C(c1cccnc1)N(C(=O)C(F)Cl)c1ccc(C(C)(C)C)cc1 (single isomer, unassigned) | rep main protease | enzyme activity, inhibitor | – | 2.7 µM |
| Cc1cc(C)nc(Sc2nc3sccn3c2[N+](=O)[O-])n1 | rep main protease | enzyme activity, inhibitor | – | 82.3 µM |
| Brc1c(Br)c(Br)c2[nH]nnc2c1Br | rep methyltransferase | enzyme activity, inhibitor | – | 9.87 µM |
| Cc1oc2nc1C(=O)N[C@](C)(C(=O)NCCc1ccccc1)c1nc(c(C)o1)C(=O)N[C@](C)(C(=O)NCCc1ccccc1)c1nc(c(C)o1)C(=O)N[C@]2(C)C(=O)NCCc1ccccc1 | rep main protease | enzyme activity, inhibitor | – | 7.35 µM and 7.3 µM |
| N#Cc1ccc(N2N=C(c3ccc(C(=O)O)cc3)CC2C2CCCC2)cc1Cl (centres unmarked) | rep methyltransferase | enzyme activity, inhibitor | – | 6.31 µM |
| CC(C)C[C@H](NC(=O)c1cc2c(OC(F)(F)F)cccc2[nH]1)C(=O)N[C@@H](C[C@@H]1CCNC1=O)C(=O)c1nc2ccccc2s1 | rep main protease | enzyme activity, inhibitor | – | 2.5 µM |
| CCOC(=O)CNC(=O)c1ccccc1[Se][Se]c1ccccc1C(=O)NCC(=O)OCC | rep main protease | enzyme activity, inhibitor | – | 0.56 µM |
